Literature values as cited in several papers.
Compare with care: the assays were run in different laboratories. ± marks the error that the study gave. Converted amounts (≈) assume the structure as drawn.
Sequence of UniProt Q9H4A3 (whole entry, looked up): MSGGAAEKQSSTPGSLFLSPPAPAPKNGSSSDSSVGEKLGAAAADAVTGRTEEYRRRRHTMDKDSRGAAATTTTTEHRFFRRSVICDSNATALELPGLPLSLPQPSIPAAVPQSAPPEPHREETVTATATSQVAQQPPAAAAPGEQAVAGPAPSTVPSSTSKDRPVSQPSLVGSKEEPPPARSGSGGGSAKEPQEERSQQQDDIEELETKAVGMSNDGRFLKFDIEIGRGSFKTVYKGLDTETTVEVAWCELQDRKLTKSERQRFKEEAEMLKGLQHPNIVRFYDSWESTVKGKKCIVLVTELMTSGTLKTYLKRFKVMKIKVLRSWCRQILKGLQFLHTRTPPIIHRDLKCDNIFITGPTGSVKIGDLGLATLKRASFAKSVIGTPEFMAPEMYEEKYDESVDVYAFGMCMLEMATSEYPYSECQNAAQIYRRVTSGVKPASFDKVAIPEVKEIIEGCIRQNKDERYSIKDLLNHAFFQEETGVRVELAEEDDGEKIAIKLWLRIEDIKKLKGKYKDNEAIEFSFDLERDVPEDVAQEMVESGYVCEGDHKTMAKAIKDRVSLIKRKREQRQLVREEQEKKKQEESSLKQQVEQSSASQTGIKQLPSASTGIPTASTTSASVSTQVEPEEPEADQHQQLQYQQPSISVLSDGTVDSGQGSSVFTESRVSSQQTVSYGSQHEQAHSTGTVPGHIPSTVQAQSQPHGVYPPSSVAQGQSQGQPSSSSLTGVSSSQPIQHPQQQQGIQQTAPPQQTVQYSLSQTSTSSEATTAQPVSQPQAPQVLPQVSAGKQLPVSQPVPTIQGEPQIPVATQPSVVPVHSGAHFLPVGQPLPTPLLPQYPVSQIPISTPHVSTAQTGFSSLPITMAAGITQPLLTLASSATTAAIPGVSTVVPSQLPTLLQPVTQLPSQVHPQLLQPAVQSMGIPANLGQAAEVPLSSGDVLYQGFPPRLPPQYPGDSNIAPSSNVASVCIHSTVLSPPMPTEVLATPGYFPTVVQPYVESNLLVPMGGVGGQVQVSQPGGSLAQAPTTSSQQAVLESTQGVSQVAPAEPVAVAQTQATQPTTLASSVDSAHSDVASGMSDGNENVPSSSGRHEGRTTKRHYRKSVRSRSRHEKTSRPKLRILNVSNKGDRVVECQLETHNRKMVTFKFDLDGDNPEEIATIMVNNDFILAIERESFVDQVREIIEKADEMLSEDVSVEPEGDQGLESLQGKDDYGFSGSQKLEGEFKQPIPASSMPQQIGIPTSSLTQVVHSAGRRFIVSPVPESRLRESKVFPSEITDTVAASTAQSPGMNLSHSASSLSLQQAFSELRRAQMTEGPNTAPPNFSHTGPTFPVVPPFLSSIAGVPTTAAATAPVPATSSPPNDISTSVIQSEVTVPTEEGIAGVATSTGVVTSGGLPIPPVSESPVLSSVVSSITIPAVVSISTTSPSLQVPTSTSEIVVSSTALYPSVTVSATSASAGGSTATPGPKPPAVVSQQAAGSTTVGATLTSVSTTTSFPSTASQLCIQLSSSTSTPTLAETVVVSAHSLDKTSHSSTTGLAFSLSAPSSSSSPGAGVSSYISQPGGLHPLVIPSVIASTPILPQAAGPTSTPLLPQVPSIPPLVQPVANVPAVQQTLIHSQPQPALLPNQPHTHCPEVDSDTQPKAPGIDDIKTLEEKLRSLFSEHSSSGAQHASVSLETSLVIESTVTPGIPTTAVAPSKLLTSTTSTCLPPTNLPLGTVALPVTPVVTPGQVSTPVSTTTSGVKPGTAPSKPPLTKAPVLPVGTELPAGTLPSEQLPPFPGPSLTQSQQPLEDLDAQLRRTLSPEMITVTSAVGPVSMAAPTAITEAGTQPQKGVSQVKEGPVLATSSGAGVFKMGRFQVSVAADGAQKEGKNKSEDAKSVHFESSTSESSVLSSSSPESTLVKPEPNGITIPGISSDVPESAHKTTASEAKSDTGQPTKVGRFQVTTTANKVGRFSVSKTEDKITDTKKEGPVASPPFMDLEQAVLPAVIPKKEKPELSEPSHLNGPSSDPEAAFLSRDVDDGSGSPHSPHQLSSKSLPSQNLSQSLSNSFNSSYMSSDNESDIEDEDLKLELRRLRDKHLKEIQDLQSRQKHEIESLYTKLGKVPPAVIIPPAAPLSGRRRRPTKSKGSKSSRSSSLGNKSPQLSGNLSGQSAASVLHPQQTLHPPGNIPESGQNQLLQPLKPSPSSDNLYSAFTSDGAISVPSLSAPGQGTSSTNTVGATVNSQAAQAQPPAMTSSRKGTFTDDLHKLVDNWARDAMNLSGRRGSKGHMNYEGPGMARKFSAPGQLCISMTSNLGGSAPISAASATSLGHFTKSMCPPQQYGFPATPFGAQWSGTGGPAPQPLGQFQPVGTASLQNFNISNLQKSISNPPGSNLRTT

For `Cc1cc(/C=C/C#N)cc(C)c1Nc1ccnc(Nc2ccc(C#N)cc2)n1`, the IC90 was 0.012 µg/mL (≈ 0.0327 µM) (HIV; protein-binding adjusted).
The IC50 of `COc1cc2c3c(c1OC)C1(C=CC(=O)C=C1)C[C@H]3N(C)CC2` is reported as 42000 nM (hepatitis B virus; HBsAg secretion; HepG2.2.15).
`Nc1cc(C(F)(F)F)c(-c2nc(N3CCOCC3)nc(N3CCOCC3)n2)cn1` gave a remaining activity of 100% (WNK1 (Homo sapiens, UniProt Q9H4A3); enzyme activity; 10 µM; baseline: untreated).
For `O=c1c(O)c(-c2ccc(O)c(O)c2)oc2cc(O)cc(O)c12`, the IC50 was 3.83 µg/mL (varicella-zoster virus; viral replication).
With `CCc1c(Cl)c(O)c(Cl)c(O)c1C(=O)O[C@H]1[C@H](O)[C@H](OC)[C@H](OC/C2=C\C=C\C[C@H](O)/C(C)=C/[C@H](CC)[C@@H](O[C@@H]3OC(C)(C)[C@@H](OC(=O)C(C)C)[C@H](O)[C@@H]3O)/C(C)=C/C(C)=C/C[C@@H]([C@@H](C)O)OC2=O)O[C@@H]1C` the MIC was over 16 µg/mL (Enterococcus faecium; 106 vancomycin-resistant).
For `CCC1=C(C)/C(=C/NC2CCCCCC2)N=C1c1ccc[nH]1`, the parasitemia reduction was 100% (Plasmodium yoelii; Kenya MRA-428; 80 mg/kg, single dose, day 5).
The IC50 of `COc1ccc(C[C@H](NC(=O)[C@H](C)NC(=O)CN2CCOCC2)C(=O)N[C@@H](Cc2ccccc2)C(=O)C2(C)CO2)cc1` (stereo in doubt) is reported as 203 ± 7 nM (Babesia; parasite growth).
`C[C@H]1COCCN1c1nc(-c2cnc(N)cc2C(F)F)nc(N2CCOCC2)n1` gave a GI50 of 250 nM (A549).
Under “relative fluorescence index”, `O=C(O)c1[nH]c2ccccc2c1C1NCCc2ccccc21` (stereo not shown) is recorded as -0.01 (Escherichia coli; efflux pump inhibition; AG100A AcrAB-TolC deleted; 50 µM; baseline: untreated cells).
`Oc1ccc(-c2nc(-c3ccc(OC4CCCC4)cc3)no2)cc1` has an MIC of over 128 µg/mL (Lactobacillus reuteri; HM-102).
With `O=C(/C=C/c1ccc(O)c(O)c1)O[C@@H]1C[C@](O)(C(=O)O)C[C@@H](OC(=O)/C=C/c2ccc(O)c(O)c2)[C@H]1O` the IC50 was 90000 nM (hepatitis B virus; viral antigen level, item: HBsAg).
`c1ccc2c(c1)CCNC2c1c[nH]c2ccccc12` (stereo not shown): “relative fluorescence index” 0.2 (Escherichia coli; efflux pump inhibition; AG100 AcrAB-TolC expressing; 50 µM; baseline: untreated cells).
For `O=C(C1CCCCC1)N1CC(=O)N2CCc3ccccc3[C@@H]2C1`, the EC50 was 0.007 µg/mL (Schistosoma haematobium; adult worms; 4 h).
`COC(=O)C1=C(CN2CC(F)(F)C[C@H]2C(=O)O)NC(c2nccs2)=N[C@H]1c1ccc(F)cc1Cl` has an EC50 of 6.4 nM (hepatitis B virus; viral replication; HepG2.2.15 cells).
`O=C(O)[C@H]1O[C@@H](Oc2cc3oc(-c4ccccc4)cc(=O)c3c(O)c2O)[C@H](O)[C@@H](O)[C@@H]1O` — result for “maximum antibacterial effect”: 2.3 log10 CFU/mL (Mycoplasmoides gallisepticum).
For `COc1cccc(C(=O)NN(C(=O)c2cc(C)cc(C)c2)C(C)(C)C)c1C`, fecundity read “decreased” (Anopheles gambiae; G3, females; topical, concentration not given).
`CC1(C)S[C@@H]2[C@H](NC(=O)[C@H](N)c3ccccc3)C(=O)N2[C@H]1C(=O)O` gave an MIC of over 16 µg/mL (Enterobacter cloacae; clinical isolate RKI-No_733/14).
The virologic relapse of `C[C@H](Cn1cnc2c(N)ncnc21)OCP(=O)(O)O` is reported as 94% (hepatitis B virus; item: HBV DNA; human HBeAg-negative patients; dose not given, week 24, after discontinuation).
The IC50 of `CCCCc1ccc(-c2nc(C)c(/C(C)=N/NC(=N)N)s2)cc1` is reported as about 2 µg/mL (Enterococcus faecalis).
With `C=C1C(=O)O[C@@H]2/C=C(\C)CC/C=C(\C)CC[C@@H]12` the IC50 was 1000 nM (hepatitis B virus; HBsAg secretion; Hep3B).
With `CNC(C)C1CCC(N)C(OC2C(N)CC(N)C(OC3OCC(C)(O)C(NC)C3O)C2O)O1` (stereo not shown) the MIC was 1 µg/mL (≈ 2.09 µM) (Enterobacter cloacae; clinical isolate RKI-No_287/13).
`Cc1cnc(N2CC3(CCOCC3)C2)c(C(=O)Nc2ccc(C(=O)N3CCc4cc(C(=O)Nc5c(C)cccc5F)sc4-c4ccccc43)cc2)c1` has an ID50 of 0.0414 mg/kg (respiratory syncytial virus; viral replication, plaque reduction; cotton rat, lung homogenate).

Excerpt of the above:
The IC50 of `COc1cc2c3c(c1OC)C1(C=CC(=O)C=C1)C[C@H]3N(C)CC2` is reported as 42000 nM (hepatitis B virus; HBsAg secretion; HepG2.2.15).
With `CCc1c(Cl)c(O)c(Cl)c(O)c1C(=O)O[C@H]1[C@H](O)[C@H](OC)[C@H](OC/C2=C\C=C\C[C@H](O)/C(C)=C/[C@H](CC)[C@@H](O[C@@H]3OC(C)(C)[C@@H](OC(=O)C(C)C)[C@H](O)[C@@H]3O)/C(C)=C/C(C)=C/C[C@@H]([C@@H](C)O)OC2=O)O[C@@H]1C` the MIC was over 16 µg/mL (Enterococcus faecium; 106 vancomycin-resistant).
For `COc1cccc(C(=O)NN(C(=O)c2cc(C)cc(C)c2)C(C)(C)C)c1C`, fecundity read “decreased” (Anopheles gambiae; G3, females; topical, concentration not given).
The IC50 of `COc1ccc(C[C@H](NC(=O)[C@H](C)NC(=O)CN2CCOCC2)C(=O)N[C@@H](Cc2ccccc2)C(=O)C2(C)CO2)cc1` (stereo in doubt) is reported as 203 ± 7 nM (Babesia; parasite growth).
